Assay results of several laboratories.
Several values in a cell are separate wells, animals, samples, runs or records. Numbers after ± are the reported error.

| Structure (SMILES) | cell line | test | conditions | scale | quantity | value |
| --- | --- | --- | --- | --- | --- | --- |
| N#CSCc1cc(=O)oc2cc(O)ccc12 | WiDr, multidrug-resistant | sulforhodamine B |  |  | GI50 | 4 ± 0.3 µM |
| Fc1ccc(Cl)c(F)c1-c1c(Cl)ncn1-c1ccc(Cl)cc1 | QBI293 cells | acetylated α-tubulin, microtubule stabiliser, ELISA |  |  | concentration at maximal effect | 30 µM |
| CN(C)c1ncnc2c1ncn2[C@@H]1O[C@H](CO)[C@@H](O)[C@H]1O | mock-transfected cells | TGFα shedding, agonist | 10 nM | reference: unstimulated vehicle control | AP-TGFα release | -0.11% and -0.05% and -0.7% |
| COc1cnc2cccc(N3CCc4c(cc(Cn5ccnc5C)cc4-c4cn(C)nc4C(F)(F)F)C3=O)c2c1 | RCM-1 | cell growth, inhibitor | 120 h |  | EC50 | > 30 µM |
| COc1cc(N2CCC(O)CC2)ccc1Nc1cc(Nc2ccccc2S(=O)(=O)C(C)C)c2cc[nH]c2n1 | U2OS H2B-GFP Plk4-overexpressing | time-lapse microscopy | 10 µM, NEBD to anaphase onset |  | mitosis duration | 20 min |
| CC[C@H](C)[C@H](NC(=O)[C@H](C)NC(=O)CNC(=O)[C@H](Cc1ccccc1)NC(=O)[C@H](CC(N)=O)NC(=O)[C@H](CC(N)=O)NC(=O)[C@H](CO)NC(=O)[C@H](CO)NC(=O)[C@H](Cc1c[nH]cn1)NC(=O)[C@@H](NC(=O)[C@H](CC(C)C)NC(=O)[C@H](Cc1ccccc1)NC(=O)[C@H](CC(N)=O)NC(=O)[C@H](C)NC(=O)[C@H](CC(C)C)NC(=O)[C@H](CCCNC(=N)N)NC(=O)[C@H](CCC(N)=O)NC(=O)[C@@H](NC(=O)[C@H](C)NC(=O)[C@@H]1CSSC[C@H](NC(=O)[C@@H](N)CCCCN)C(=O)N[C@@H](CC(N)=O)C(=O)N[C@@H]([C@@H](C)O)C(=O)N[C@@H](C)C(=O)N[C@@H]([C@@H](C)O)C(=O)N1)[C@@H](C)O)C(C)C)C(=O)N[C@@H](CC(C)C)C(=O)N[C@@H](CO)C(=O)N[C@@H](CO)C(=O)N[C@H](C(=O)N[C@@H](CC(N)=O)C(=O)N[C@H](C(=O)NCC(=O)N[C@@H](CO)C(=O)N[C@@H](CC(N)=O)C(=O)N[C@H](C(=O)N[C@@H](Cc1ccc(O)cc1)C(N)=O)[C@@H](C)O)C(C)C)[C@@H](C)O | INS-1 | DCFH-DA confocal microscopy | 1 µM, unit not given | reference: control | intracellular ROS level | 5.39 and 4.88 |
| CC#CC(=O)N1CCC[C@H]1c1nc(-c2ccc(C(=O)Nc3ccccn3)cc2)c2c(N)nccn12 | TMD8 | calcium flux, FLIPR | 2 h preincubation, with: anti-IgM |  | maximum inhibition | 52.9% |
| Nc1cccc2c1CN(C1CCC(=O)NC1=O)C2=O (stereo not shown) | BRD4-HiBiT cells | BRD4 degradation rescue, inhibitor | 8 h, with: dBET6 500 nM |  | EC50 | 10.6 µM |
| CCn1cc(-c2cc(Cn3ccnc3)cc3c2CCN([C@H](c2cc(OC)ccn2)C2CC2)C3=O)c(C(F)(F)F)n1 | KP3 | cell growth | 120 h |  | EC50 | > 30 µM |
| CC(C)NCC(O)c1ccc(O)c(O)c1 (stereo not shown) | mouse ventricular cardiomyocytes |  | dose not given, 0.12 s |  | sarcomere length | 1.64 µm |
| Cc1nn(-c2nc3ccc(Cl)c(Cl)c3[nH]2)c(O)c1C1OC(=O)c2ccccc21 (stereo not shown) | RAW-ISG | IFN luciferase reporter | 20 µM, with: HT-DNA |  | inhibition | 93% and 92.8% and 92.5% and 92.4% and 92.6% |
| COc1cc(/C=C/C(=O)N2CCC=CC2=O)cc(OC)c1OC | MDA-MB-468 | qRT-PCR, item: Nestin | 30 µM, 6 h | reference: time zero | mRNA expression | 105 ± 13.2% |
| CCn1cc(-c2cc(Cn3ccoc3=N)cc3c2CCN([C@@H](C)c2cc(OC)ccn2)C3=O)c(C(F)(F)F)n1 | OVK18 | cell growth, inhibitor | 120 h |  | EC50 | 3.92 µM |
| O=c1[nH]nc(OCCCc2ccc(Cl)cc2)c(NCc2cccnc2)c1Br | HEK-293T ATF4-mAPPLE, HRI CRISPRi knockdown | flow cytometry | 10 µM, 16 h |  | ATF4-mAPPLE reporter activation | inhibited |
| C=C[C@@]1(C)CC(=O)[C@]2(O)[C@@]3(C)[C@@H](O)CCC(C)(C)[C@@H]3[C@H](O)[C@H](OC(C)=O)[C@@]2(C)O1 | MDA-MB-231 BAX/BAK siRNA knockdown | cell viability, CellTiter-Glo |  | direction not given | Z score | 0.737 |
| O=C(NN=Cc1ccc([N+](=O)[O-])s1)C1CC(=O)N(c2ccc(F)cc2F)C1 (stereo not shown) | PPC-1 | wound healing | 10 µM, 12 h |  | cell migration | inhibited |
| CCOC(=O)C1=C(C)NC2=C(C(=O)OC(c3ccc(OC)c(OC)c3)C2)C1c1ccc2ccccc2c1 (stereo not shown) | J774.A1 | cytotoxicity |  |  | EC50 | > 20 µM |
| NS(=O)(=O)OC[C@@H]1C[C@@H](n2ccc3c(N[C@H]4CCc5ccccc54)ncnc32)C[C@@H]1O | BRD4-HiBiT cells | BRD4 degradation rescue, inhibitor | 4 h, 50% degradation rescued, with: dBET6 500 nM |  | EC50 | 0.108 µM |
| Cn1cc(-n2cnc3c(NCc4nc5cc(Cl)c(Cl)cc5[nH]4)nc(N4CCOCC4)nc32)cn1 | MDA-MB-231 | qRT-PCR, item: FANCI | 50 nM, 6 h, unit not given | reference: untreated | mRNA level | 0.626 |
| CCCC1=C(C(=O)OCC)C(c2ccc(Cl)cc2C)C2=C(CC(c3cc(OC)ccc3OC)CC2=O)N1 (mixture of isomers) | J774.A1 | cytotoxicity |  |  | EC50 | > 20 µM |
| C[C@@H](O)[C@H](NC(=O)Nc1ncnc2c1ncn2[C@@H]1O[C@H](CO)[C@@H](O)[C@H]1O)C(=O)O | mock-transfected cells | TGFα shedding, agonist | 100 µM | reference: unstimulated vehicle control | AP-TGFα release | 0% |
| c1ccc2[nH]ccc2c1 | HCT-8 | RNA-seq, item: LURAP1L | concentration not given |  | mRNA level, LS mean | 9.79 counts per million |
| CC1CC(OC(=O)C(O)c2ccccc2)CC(C)(C)C1 (stereo not shown) | MDA-MB-231 BAX/BAK siRNA knockdown | cell viability, CellTiter-Glo |  | direction not given | Z score | -0.173 |
| CCN1CCN(Cc2ccc(NC(=O)c3ccc(C)c(-c4ccc5nc(NC(=O)C6CC6)cn5c4)c3)cc2C(F)(F)F)CC1 | MHHCALL4 B-ALL cells | CellTiter-Glo | concentration not given, 3 d |  | cell proliferation | inhibited |
| CC(C)C[C@H](NC(=O)CNC(=O)c1cc(Cl)ccc1Cl)B(O)O | BRD4-HiBiT cells | BRD4 degradation rescue, inhibitor | 24 h, with: dBET6 500 nM |  | EC50 | 0.0385 µM |

| Structure (SMILES) | cell line | test | conditions | scale | quantity | value |
| --- | --- | --- | --- | --- | --- | --- |
| COc1ccc(NC(=S)N/N=C/c2cccc3cc4ccccc4nc23)cc1 | HeLa | PI flow cytometry | IC50, 48 h, with: N-acetylcysteine |  | cells in S phase | 30.9% |
| N#C/C(=C\c1c[nH]nc1-c1ccc(Cl)c(Cl)c1)C(=O)O | LX-2 | qPCR, item: PAI1 | 10 µM, hepatic stellate cell activation, with: TGFβ | reference: untreated | mRNA level | decreased |
| O=P(O)(O)C(O)(Cn1ccnc1)P(=O)(O)O | hFOB 1.19 | AlamarBlue | 1.9 µM, 48 h | reference: control | viability | 100 ± 1% |
| Cn1cc(Nc2nccc(-c3ccc4c(c3)CN(C3COC3)CC[C@H]4NC(=O)c3cn(C(C)(C)C)nn3)n2)cn1 | mouse splenic B cells | item: EIF2 signalling | 30 mg/kg, IgD-activated in vivo | reference: vehicle, direction not given | pathway activation z-score | 0.728 |
| O=C(/C=C/C=C/C=C/C1CCCCC1)NC1=C[C@@](O)(/C=C/C=C/C=C/C(=O)NC2=C(O)CCC2=O)[C@@H]2O[C@@H]2C1=O | AGS | cell growth, CellTiter-Glo | 78 h |  | GI50 | 19.2 µM |
| Cc1nc(NC(=O)N2CCC[C@H]2C(N)=O)sc1-c1ccnc(C(C)(C)C(F)(F)F)c1 | BT-20 | cell growth, CellTiter-Glo | 120 h |  | Hill coefficient GR curve | 1.37 |
| CCc1ccc(NC(=O)Nc2c[nH]c3ccccc23)cc1 | THP1-Dual | TBK1 phosphorylation, inhibitor, Western blot densitometry | 20 µM, with: cGAMP |  | phospho-TBK1/TBK1 ratio | 0.273 and 0.399 and 0.475 |
| CC/C(=N\NC(=O)NCc1cccc(O)c1)c1ccc(O)c(C)c1O | SK-OV-3 | Western blot, item: LATS | 20 µM, 1 h, 2D culture, unit not given | reference: β-actin | protein level | 0.98 ± 0.5 |
| [Cl][111In]([Cl])[Cl] | U2OS-53BP1 |  | concentration not given, 16 h |  | DNA-bound fraction | ≤ 0.01% |
| CCOC(=O)C1=C(C)NC2=C(C(=O)OC(c3ccc(OC)c(OC)c3)C2)C1c1ccccc1C (mixture of isomers) | J774.A1 | cytotoxicity |  |  | EC50 | > 20 µM |
| CCCN1CCN(c2ccc3[nH]c(-c4ccc5[nH]c(-c6cc(OC)c(OC)c(OC)c6)nc5c4)nc3c2)CC1 | MDA-MB-435 | SRB | 10 µM, 48 h |  | growth percent | 55.1% |
| C[C@H]1Oc2cc(cnc2N)-c2c(nn(C)c2C#N)CN(C)C(=O)c2ccc(F)cc21 | Aska-SS (ALK exon 2-17 deletion) | cell viability |  |  | Emax | 77.7% |
| Nc1cccc2c1C(=O)N(C1CCC(=O)NC1=O)C2=O (stereo not shown) | RPMI-8226 | flow cytometry, item: CD151 | concentration not given | reference: comparator compound alone | surface marker level | 201% |
| CCCCc1oc2ccc(NS(C)(=O)=O)cc2c1C(=O)c1ccc(OCCCN(CCCC)CCCC)cc1 | human embryonic stem cell aggregates | mRNA level, microarray, item: MXRA8 | 0.5 µM, 120 h | reference: untreated, down-regulated | fold change | 5.2 fold |
| Clc1nc(NCc2ccco2)c2[nH]cnc2n1 | FD iPSC-derived cardiomyocytes | alternative splicing, RNA-seq, item: CCDC34 exon chr11:27350331-27350439 | unit not given | reference: DMSO minus compound | ΔPSI | 0.27 |
| CC(=O)c1nn(-c2ccc(Cl)cc2)/c(=N/N=C(\C)c2ccc(NC(=O)c3ccc(C)cc3)cc2)s1 | HepG2 |  | 0.625 µM |  | toxicity | 78.4% |
| Cc1cnc(NC2CCOCC2)nc1-n1cnc(C(=O)NC(CN)c2cc(F)cc(Cl)c2)c1 (stereo not shown) | MINO | flow cytometry | 1 µM, 24 h |  | S phase cells | 7.6% |
| CCCCN1C[C@H](O)[C@@H](O)[C@@H](O)[C@H]1CO | sample I patient fibroblasts | GlcCer level lowering, LC-MS/MS, item: GlcCer d18:1/16:0 | 216 h |  | IC50 | 8.3 µM |
| Cc1nn(-c2nc3c(F)cc(F)cc3s2)c(O)c1C(c1ccccc1C(F)(F)F)c1c(C)nn(-c2nc3c(F)cc(F)cc3s2)c1O | THP1-Dual | IFN luciferase reporter | 0.625 µM, with: HT-DNA |  | inhibition | -11.1% and -2.08% and 1.16% and -11.6% and -7.53% and -0.887% |
| Cn1cc(-c2ccc(-c3cncc(Cl)c3N3CCC4(CCNC4=O)CC3)cc2)cn1 | COLO 205 | gene expression, microarray, item: SLC8A1 mRNA | concentration not given, 2 h | reference: untreated cells | log2 fold change | 2.4 |
| Cc1cc(Nc2ncc(Cl)c(Nc3ccccc3S(=O)(=O)C(C)C)n2)c(OC(C)C)cc1C1CCNCC1 | CLB-BAR | phosphoproteomics LC-MS/MS, item: HVCN1 phosphorylation | 200 nM, 60 min | reference: untreated | log2 fold change | -3.23 |
| NCCOc1cc(NC(=O)c2cccc(C(=O)Nc3cc(OCCN)c4ccccc4n3)n2)nc2ccccc12 | HT-1080 | cell viability, CellTiter-Glo | 72 h | reference: IC50 HT-1080 over WI-38 | selectivity ratio | 3.4 |
| CCCC1=C(C(=O)OCC)C(c2ccc(Cl)cc2C)C2=C(CC(c3ccc(OC)c(OC)c3)OC2=O)N1 (stereo not shown) | J774.A1 | cytotoxicity |  |  | EC50 | > 20 µM |
| C=Cc1c2[n-]c(c1C)/C=c1\[n-]/c(c(C)c1C=C)=C\c1[n-]c(c(CCC(=O)O)c1C)/C=c1\[n-]c(c(C)c1CCC(=O)O)=C2.[Sn+4] | SH-SY5Y | RNA-seq, item: RYR3 mRNA | 5 µM, 5 h | reference: untreated cells | fold change | 1.68 |

A few entries again:
| Structure (SMILES) | cell line | test | conditions | scale | quantity | value |
| --- | --- | --- | --- | --- | --- | --- |
| CC/C(=N\NC(=O)NCc1cccc(O)c1)c1ccc(O)c(C)c1O | SK-OV-3 | Western blot, item: LATS | 20 µM, 1 h, 2D culture, unit not given | reference: β-actin | protein level | 0.98 ± 0.5 |
| CC#CC(=O)N1CCC[C@H]1c1nc(-c2ccc(C(=O)Nc3ccccn3)cc2)c2c(N)nccn12 | TMD8 | calcium flux, FLIPR | 2 h preincubation, with: anti-IgM |  | maximum inhibition | 52.9% |
| CC1CC(OC(=O)C(O)c2ccccc2)CC(C)(C)C1 (stereo not shown) | MDA-MB-231 BAX/BAK siRNA knockdown | cell viability, CellTiter-Glo |  | direction not given | Z score | -0.173 |
| Nc1cccc2c1CN(C1CCC(=O)NC1=O)C2=O (stereo not shown) | BRD4-HiBiT cells | BRD4 degradation rescue, inhibitor | 8 h, with: dBET6 500 nM |  | EC50 | 10.6 µM |
